Measured values of several laboratories.
Lines come from different studies, so protocols differ. ± gives the spread as reported.
Cell line: HCT-116

CC(=NN=c1sc(C(=O)c2ccccc2)nn1-c1ccccc1)c1ccc(S(=O)(=O)N2CCC(C)CC2)cc1 — cells in G2/M phase (flow cytometry; 3.66 µM (IC50), 72 h): 22.7%
CN1C(=O)/C(=N\c2ccc(Cl)cc2Br)c2ccccc21 — IC50 (cell growth or viability, MTT; 48 h): 28.3 µM
[BH3-][P+]1(c2ccccc2)CCC(=O)CC1 — selectivity index (MTT; 72 h; relative to: IC50 HaCaT over IC50 HCT-116): 1
CCNC(=S)N/N=C(\C)c1c(O)c2ccccc2oc1=O — selectivity index (cell growth, MTT; relative to: IC50 BJ-1 over HCT-116): > 5.62
CSC(=S)N/N=C(\C)c1ccc(S(=O)(=O)N2CCC(C)CC2)cc1 — cells in S phase (flow cytometry; 3.66 µM (IC50), 72 h): 31.2%
Oc1c(Cl)cc(Cl)cc1/C=N/Nc1ncnc2sc3c(c12)CCCC3 — IC50 (cell growth or viability, CCK-8; 48 h): 0.58 µM
COc1ccc(NC(=O)c2c(Nc3ccccc3)sc(C(=O)N/N=C/c3ccc(OC)c(OC)c3)c2NC(C)=O)cc1 — viability (cell growth or viability, SRB; 1 µM, 48 h): 48.1%
CSC(=NN=C(C)c1ccc(S(=O)(=O)N2CCC(C)CC2)cc1)N(C)C — cells in G2/M phase (flow cytometry; 3.66 µM (IC50), 72 h): 22.2%
O=C(CCl)c1ccccc1Nc1cccc(C(F)(F)F)c1 — GI50 (cell growth or viability, CCK-8; 72 h): 1.08 µM
CN(C)CCN1CCN(c2ccc3nc(-c4ccc5nc(-c6ccc(C(F)(F)F)cc6)[nH]c5c4)[nH]c3c2)CC1 — growth percent (SRB; 10 µM, 48 h): 23.8%
CCS(=O)(=O)Oc1cc(/C=N/NC(=O)c2nc3ccccc3s2)ccc1OC — cell death (cell growth or viability, MTT; 100 µM, 48 h): 35.5%
C/C(=N\NC(N)=S)c1c(O)c2ccccc2oc1=O — selectivity index (cell growth, MTT; relative to: IC50 BJ-1 over HCT-116): > 5.62
O=C(Nc1nnc2c1c(-c1ccc(Cl)cc1)nc1sc(=Cc3ccco3)c(=O)n12)c1ccccc1 (mixture of isomers) — cell growth (SRB; 10 µM, NCI60 single-dose screen, colon cancer; relative to: untreated): 38.3%
[BH3-][P@+]1(c2ccccc2)CC[C@H](O)CC1 — selectivity index (MTT; 72 h; relative to: IC50 HaCaT over IC50 HCT-116): 1
C1=[N+]2CCCC[N+]3=Cc4ccc5[n]4[Au-]23[n]2c1ccc2-c1nc2ccccc2nc1-5.F[P-](F)(F)(F)(F)F — TGI (NCI60 five-dose screen): 4.49 -log M
[BH3-][P+]1(c2ccccc2)CCCCC1 — IL-6 level (ELISA; IC50, 72 h): 4.6 ± 0.51 pg/mL
C/C(=N\N=C1/NC(=O)CS1)c1c(O)c2ccccc2oc1=O — selectivity index (cell growth, MTT; relative to: IC50 BJ-1 over HCT-116): > 10.5
CCN(C(=O)c1cc(F)ccc1Oc1nncnc1N1CCC2(C1)CN([C@H](CCCN(C)CCOC)C(C)C)C2)C(C)C — GI50 (cell growth or viability; 7 days): > 10 µM
O=[P@]1(c2ccccc2)CC[C@@H](O)CC1 — selectivity index (MTT; 72 h; relative to: IC50 HaCaT over IC50 HCT-116): 1

Excerpt of the above:
CCNC(=S)N/N=C(\C)c1c(O)c2ccccc2oc1=O — selectivity index (cell growth, MTT; relative to: IC50 BJ-1 over HCT-116): > 5.62
CSC(=S)N/N=C(\C)c1ccc(S(=O)(=O)N2CCC(C)CC2)cc1 — cells in S phase (flow cytometry; 3.66 µM (IC50), 72 h): 31.2%
